Published values pooled from the literature.
Parts stem from different laboratories: compare values within a part only. Positions count from the first letter of the parent shown.
Sequence of UniProt Q9XFM0 (whole entry, looked up): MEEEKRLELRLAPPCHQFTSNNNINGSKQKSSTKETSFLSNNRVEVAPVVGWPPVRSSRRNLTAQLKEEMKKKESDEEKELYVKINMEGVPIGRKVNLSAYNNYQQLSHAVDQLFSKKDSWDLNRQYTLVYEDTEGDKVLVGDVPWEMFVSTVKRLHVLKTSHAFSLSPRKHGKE
Sequence of UniProt Q9ZTX8 (whole entry, looked up): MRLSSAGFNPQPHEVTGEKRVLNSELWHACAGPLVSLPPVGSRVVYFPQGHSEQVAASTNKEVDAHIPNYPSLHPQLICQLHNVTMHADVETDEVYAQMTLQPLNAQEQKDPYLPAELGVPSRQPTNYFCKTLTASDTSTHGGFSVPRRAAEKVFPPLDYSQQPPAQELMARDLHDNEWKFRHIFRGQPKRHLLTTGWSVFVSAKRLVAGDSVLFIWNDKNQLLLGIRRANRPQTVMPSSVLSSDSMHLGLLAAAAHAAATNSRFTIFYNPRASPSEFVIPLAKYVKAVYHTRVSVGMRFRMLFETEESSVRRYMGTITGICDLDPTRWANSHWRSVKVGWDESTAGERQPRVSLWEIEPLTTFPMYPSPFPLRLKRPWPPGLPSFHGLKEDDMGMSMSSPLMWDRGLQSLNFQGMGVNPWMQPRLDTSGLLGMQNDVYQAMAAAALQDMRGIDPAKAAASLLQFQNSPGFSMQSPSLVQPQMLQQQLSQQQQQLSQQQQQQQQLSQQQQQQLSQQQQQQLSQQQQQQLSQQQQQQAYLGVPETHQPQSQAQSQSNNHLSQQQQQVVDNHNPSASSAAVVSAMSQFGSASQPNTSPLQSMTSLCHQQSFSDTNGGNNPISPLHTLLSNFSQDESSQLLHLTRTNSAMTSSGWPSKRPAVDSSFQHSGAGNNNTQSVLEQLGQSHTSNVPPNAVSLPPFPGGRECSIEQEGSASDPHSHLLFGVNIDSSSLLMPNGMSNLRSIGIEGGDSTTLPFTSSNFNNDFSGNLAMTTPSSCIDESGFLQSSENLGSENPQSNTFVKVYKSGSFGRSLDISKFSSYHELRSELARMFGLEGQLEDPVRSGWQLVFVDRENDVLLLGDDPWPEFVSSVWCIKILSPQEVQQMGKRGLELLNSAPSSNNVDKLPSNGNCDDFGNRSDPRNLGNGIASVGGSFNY
Sequence of UniProt Q8H174 (whole entry, looked up): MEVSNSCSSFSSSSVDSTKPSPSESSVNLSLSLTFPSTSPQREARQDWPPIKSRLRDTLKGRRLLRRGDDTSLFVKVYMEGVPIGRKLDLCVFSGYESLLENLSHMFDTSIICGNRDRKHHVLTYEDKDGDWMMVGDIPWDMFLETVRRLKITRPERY
Sequence of UniProt Q9ZPY6 (whole entry, looked up): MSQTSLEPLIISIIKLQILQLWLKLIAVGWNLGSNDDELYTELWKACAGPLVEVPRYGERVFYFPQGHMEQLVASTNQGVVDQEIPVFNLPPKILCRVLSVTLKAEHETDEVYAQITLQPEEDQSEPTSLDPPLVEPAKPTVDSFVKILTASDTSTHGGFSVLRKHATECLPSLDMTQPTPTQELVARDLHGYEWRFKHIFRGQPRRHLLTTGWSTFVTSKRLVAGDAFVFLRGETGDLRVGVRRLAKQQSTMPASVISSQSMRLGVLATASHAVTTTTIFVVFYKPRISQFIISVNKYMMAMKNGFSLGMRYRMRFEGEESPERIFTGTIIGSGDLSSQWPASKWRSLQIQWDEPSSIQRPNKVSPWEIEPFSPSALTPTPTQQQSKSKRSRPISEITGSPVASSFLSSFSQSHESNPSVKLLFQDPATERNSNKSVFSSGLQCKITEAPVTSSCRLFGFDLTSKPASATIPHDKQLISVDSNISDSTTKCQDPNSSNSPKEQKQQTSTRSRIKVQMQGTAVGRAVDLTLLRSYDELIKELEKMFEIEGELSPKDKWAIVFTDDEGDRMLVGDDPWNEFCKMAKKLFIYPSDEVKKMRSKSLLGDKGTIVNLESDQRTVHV
Sequence of UniProt Q9C5X0 (whole entry, looked up): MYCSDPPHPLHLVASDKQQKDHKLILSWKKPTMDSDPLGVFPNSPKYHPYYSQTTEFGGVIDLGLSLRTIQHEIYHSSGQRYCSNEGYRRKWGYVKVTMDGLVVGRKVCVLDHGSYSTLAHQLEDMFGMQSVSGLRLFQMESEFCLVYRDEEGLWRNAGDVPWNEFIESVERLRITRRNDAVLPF
Sequence of UniProt P93022 (whole entry, looked up): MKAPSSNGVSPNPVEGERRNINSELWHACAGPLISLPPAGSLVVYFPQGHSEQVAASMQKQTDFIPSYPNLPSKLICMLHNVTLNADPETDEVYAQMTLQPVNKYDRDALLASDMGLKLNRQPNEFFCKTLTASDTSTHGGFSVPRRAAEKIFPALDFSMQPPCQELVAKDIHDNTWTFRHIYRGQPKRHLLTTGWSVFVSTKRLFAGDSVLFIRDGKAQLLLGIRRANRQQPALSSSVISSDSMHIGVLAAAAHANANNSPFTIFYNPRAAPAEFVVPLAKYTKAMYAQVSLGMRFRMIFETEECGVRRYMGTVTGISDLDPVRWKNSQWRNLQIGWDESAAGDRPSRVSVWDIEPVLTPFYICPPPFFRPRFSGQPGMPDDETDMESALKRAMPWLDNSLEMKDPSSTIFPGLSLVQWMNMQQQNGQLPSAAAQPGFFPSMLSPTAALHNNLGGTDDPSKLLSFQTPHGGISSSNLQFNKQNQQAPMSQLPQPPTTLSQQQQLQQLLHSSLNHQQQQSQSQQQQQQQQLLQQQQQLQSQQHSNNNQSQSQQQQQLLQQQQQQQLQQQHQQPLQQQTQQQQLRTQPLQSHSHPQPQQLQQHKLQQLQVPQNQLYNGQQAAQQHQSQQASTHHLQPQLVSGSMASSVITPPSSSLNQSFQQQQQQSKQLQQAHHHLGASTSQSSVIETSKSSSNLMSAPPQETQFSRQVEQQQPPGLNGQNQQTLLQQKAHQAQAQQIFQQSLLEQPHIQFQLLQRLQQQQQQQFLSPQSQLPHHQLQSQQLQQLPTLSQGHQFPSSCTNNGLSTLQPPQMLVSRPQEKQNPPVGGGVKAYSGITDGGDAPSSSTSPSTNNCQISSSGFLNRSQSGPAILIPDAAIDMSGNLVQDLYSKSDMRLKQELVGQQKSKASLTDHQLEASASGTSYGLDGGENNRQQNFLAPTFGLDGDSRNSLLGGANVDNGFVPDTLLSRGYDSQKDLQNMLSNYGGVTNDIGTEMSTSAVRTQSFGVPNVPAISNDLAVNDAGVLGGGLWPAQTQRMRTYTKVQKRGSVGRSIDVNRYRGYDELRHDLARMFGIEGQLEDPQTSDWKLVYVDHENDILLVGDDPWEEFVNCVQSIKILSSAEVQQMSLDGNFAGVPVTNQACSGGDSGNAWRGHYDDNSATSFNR

Sample 1
Target: Prothrombin, mature alpha-thrombin (F2, Homo sapiens, UniProt P00734)
Technique: aptamer microarray, sandwich
Molecule type: DNA with 2'F-ANA
Matrix: in vitro
Concentration: 200 nM
Notes: whole 15-mer aptamer, many near background
With: Cy3 exosite-II aptamer, 400 nM
Direction: higher = stronger binding
Endpoint: mean fluorescence intensity
Strand: GGTTGGTGTGGTTGG
2'F-ANA at 1 2 3 7 8 9 14 15: 81.8 a.u.
2'F-ANA at 2 3 4 7 8 12 14: 525 a.u.
2'F-ANA at 5 6 9 10 12 13: 91.7 a.u.
2'F-ANA at 1 2 5 6 8 10 12 13 14 15: 91.6 a.u.
2'F-ANA at 2 3 6 10 12 13: 468 a.u.
2'F-ANA at 1 7 8 11 13 14 15: 61.3 a.u.
2'F-ANA at 1 2 4 5 6 9 13 14 15: 46.8 a.u.
2'F-ANA at 1 3 7 8 9 11 13 15: 284 a.u.

Sample 2
Sequence: B1 (IAA18)
Technique: two-hybrid
Reference: out of 4 tests
Direction: higher = firmer interaction
Endpoint: positive tests
B1: IAA18 (Arabidopsis thaliana, UniProt O24408); chain MEGYSRNGEISPKLLDLMIPQERRNWFHDEKNSVFKTEEKKLELKLGPPGEEDDDESMIRHMKKEPKDKSILSLAGKYFSPSSTKTTSHKRTAPGPVVGWPPVRSFRKNLASGSSSKLGNDSTTSNGVTLKNQKCDAAAKTTEPKRQGGMFVKINMYGVPIGRKVDLSAHNSYEQLSFTVDKLFRGLLAAQRDFPSSIEDEKPITGLLDGNGEYTLTYEDNEGDKMLVGDVPWQMFVSSVKRLRVIKTSEISSALTYGNGKQEKMRR
ARF11 500-622 (Arabidopsis thaliana, UniProt Q9ZPY6): 0
ARF6 790-935 (Arabidopsis thaliana, UniProt Q9ZTX8): 3
IAA34 (Arabidopsis thaliana, UniProt Q9C5X0): 4
ARF7 1030-1164 (Arabidopsis thaliana, UniProt P93022): 3
IAA28 (Arabidopsis thaliana, UniProt Q9XFM0): 3
IAA31 (Arabidopsis thaliana, UniProt Q8H174): 2

Single results of other studies
P1: viral docking peptide; YKVKRRLVFGADD; partner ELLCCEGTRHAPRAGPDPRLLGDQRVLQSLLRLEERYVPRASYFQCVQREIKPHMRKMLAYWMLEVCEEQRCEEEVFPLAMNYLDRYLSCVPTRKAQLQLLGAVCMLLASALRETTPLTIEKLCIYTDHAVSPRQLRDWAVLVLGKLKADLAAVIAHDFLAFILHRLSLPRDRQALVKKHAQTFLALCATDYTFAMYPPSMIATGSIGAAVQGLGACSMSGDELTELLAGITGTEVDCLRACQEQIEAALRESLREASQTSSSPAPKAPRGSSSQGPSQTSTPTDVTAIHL
DNAAF5 (Homo sapiens, UniProt Q86Y56) — cross-linked residues (RUVBL1 (Homo sapiens, UniProt Q9Y265); cross-linking MS; cell fractions; with: DSSO): S42 to K422
P1 F9Q — normalised enrichment score (CCND3, cyclin fold, Cln2 fusion (human); yeast growth competition, sequencing; yeast; weak parent motif; reference: not given, higher = stronger binding): 0.658
ZFYVE9 (Homo sapiens, UniProt O95405) — cross-linked residues (LRPAP1 (Homo sapiens, UniProt P30533); cross-linking MS; cell fractions; with: DSSO): S1219 to K225
GSN (Homo sapiens, UniProt P06396) — cross-linked residues (GOT1 (Homo sapiens, UniProt P17174); cross-linking MS; cell fractions; with: DSSO): K169 to K290
SUCLG1 (Homo sapiens, UniProt P53597) — cross-linked residues (SUCLG2 (Homo sapiens, UniProt Q96I99); cross-linking MS; cell fractions; with: DHSO): E77 to E400

Repeated from above (sample 1):
2'F-ANA at 2 3 6 10 12 13: 468 a.u.
